Measurements gathered from unrelated publications.
Parts stem from different laboratories: compare values within a part only. Changes are numbered by the printed parent chain.

Block 1
Target: Interferon regulatory factor 3, full length, phosphomimetic (IRF3, Homo sapiens, UniProt Q14653, residues 1-427, S386D/S396D/S398D/S402D/T404D/S405D)
Technique: protein-binding microarray
Form: double-stranded DNA, one strand shown
Medium: in vitro
Concentration: 2540 nM top
Setting: 60-bp whole probe
With: salmon DNA 0.4 mg/ml
Reference: random background probes
Direction: higher = stronger binding
Constant ends, left off below: GCCTAGCAC … GTCTTGATTCGCTTGACGCTGCTG
Target sequence (chain): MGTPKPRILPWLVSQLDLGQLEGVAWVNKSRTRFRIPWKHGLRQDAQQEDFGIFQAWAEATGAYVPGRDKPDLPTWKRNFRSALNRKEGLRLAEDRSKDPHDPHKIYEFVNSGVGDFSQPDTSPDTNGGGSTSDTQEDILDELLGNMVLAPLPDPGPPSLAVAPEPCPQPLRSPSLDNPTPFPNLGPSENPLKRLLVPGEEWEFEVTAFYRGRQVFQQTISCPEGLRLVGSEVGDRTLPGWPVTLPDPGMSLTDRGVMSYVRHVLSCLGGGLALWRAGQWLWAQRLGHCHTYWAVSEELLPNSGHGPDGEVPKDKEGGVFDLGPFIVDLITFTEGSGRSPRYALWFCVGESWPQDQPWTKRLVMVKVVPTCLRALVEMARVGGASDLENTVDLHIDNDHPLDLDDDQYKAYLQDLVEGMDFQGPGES
Strand	fitted relative affinity
GACAAACTGGGGTTTCGAGACGTGCTA	0.416 z-score
CTTTCTTTATGCACTCTCTACGTGCTA	4.96 z-score
TTGATAATTTTTTTCTAAGTGTGCTAG	-0.143 z-score
GACGATTTCGGACTGGAGACGTGCTAG	1.84 z-score
GACGGTTTCCTATTGCTGACGTGCTAG	6.02 z-score
GACTGTTCCGGTTTCGGGACGTGCTAG	5.47 z-score
TGCTGTGTGCATCTATCTTAGTGCTAG	-0.438 z-score
GACGGTATCCTTTTCGTGACGTGCTAG	7.84 z-score
GACGGGATCCTACTGCTGACGTGCTAG	0.785 z-score
AGTTAATCCCTCTCAGGCATGTGCTAG	0.762 z-score
TTAGGTATCGGGTTTCGGTTGGTGCTA	3.18 z-score
GACGATCTCAGTATCGAGATGTGCTAG	1.15 z-score
AACGGTATCGACTTTCGGGACGTGCTA	1.37 z-score
TTATGTTTCGGTTTCGGTTAGTGCTAG	11.3 z-score
GAGGGTATCGGTCTCGGGACGTGCTAG	3.03 z-score
GACGATCGCAGACTGGAGACGTGCTAG	-0.226 z-score
CTCCCTTGAGGTTTTCTCTGGGTGCTA	-0.312 z-score
TCACCTCTAGGAATGTAACTGTGCTAG	0.216 z-score
TACGATTTCGGGACTGGAGACGTGCTA	1.31 z-score
TTAGGTATCCTTATCATTTAGTGCTAG	5.14 z-score
GAAGATTTCAATTAAAAAAAGTGCTAG	0.623 z-score
TTAGGTTTCAACACTGGGTTAGTGCTA	0.616 z-score
AGTATGTTCACTATTTAAGGGTGCTAG	0.837 z-score
TTAGGTTTCCTTTCCCTTTTGTGCTAG	10.9 z-score
ATGTCCTCCTCTCTCTTTCCGTGCTAG	1.4 z-score

Block 2
Target: CCNB2, cyclin fold, Cln2 fusion (human)
Technique: yeast growth competition, sequencing
Medium: yeast
Setting: strong parent motif
Reference: not given
Direction: higher = stronger binding
Parent: E2F1 docking peptide (human); PPVKRRLDFETDH; partner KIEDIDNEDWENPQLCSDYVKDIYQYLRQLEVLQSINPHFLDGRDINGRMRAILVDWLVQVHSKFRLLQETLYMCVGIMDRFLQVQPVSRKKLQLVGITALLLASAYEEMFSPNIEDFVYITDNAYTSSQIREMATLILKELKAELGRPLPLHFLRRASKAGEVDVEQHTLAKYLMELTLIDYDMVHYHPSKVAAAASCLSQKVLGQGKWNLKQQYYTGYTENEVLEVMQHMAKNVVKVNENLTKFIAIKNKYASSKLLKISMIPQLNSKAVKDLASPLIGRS
Variant	normalised enrichment score
K4I	1.76
L7K	0.0679
D8M	2.72
P2A	2.97
R5S	0.325
F9A	0.266
D8W	2.34
E10F	2.46
K4N	2.45
D12R	2.61
V3A	1.06
V3W	0.762
D8S	3.12
K4L	0.308
L7T	0.049
R5H	0.501
P2E	3.71
E10C	2.83
T11E	4.36
L7F	0.749
F9C	0.144
T11W	4.12
V3F	0.62
D8T	3.07
P2M	2.97

Block 3
Target: Histone acetyltransferase KAT6A, winged helix 2, GST fusion (KAT6A, Homo sapiens, UniProt Q92794, residues 85-181)
Technique: protein binding microarray
Form: double-stranded DNA, one strand shown
Medium: in vitro
Concentration: not given
Setting: 8-mer, flanks averaged, mean of 2 arrays, mostly near background
Reference: not given
Direction: higher = stronger binding
Construct (chain): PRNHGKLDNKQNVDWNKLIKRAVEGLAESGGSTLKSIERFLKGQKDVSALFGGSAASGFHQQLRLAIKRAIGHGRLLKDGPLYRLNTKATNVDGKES
Strand	E-score
GGTGGTAC	-0.0183
GGGCTGTA	-0.173
CCCTCTTA	0.0677
CCACTTCC	0.0237
ACAGCACT	0.0686
CAACGACA	0.0531
CGAGTTTC	0.0447
AAGATTCC	0.0884
CAGTGAGC	-0.0395
CCAATGTC	-0.058
ATGTTACC	-0.0413
CGGGATAC	0.0189
GCAGCTAC	0.174
CCGACGGC	0.147
AACATTGG	-0.186
TAGATACA	-0.145
CGAGGGGC	0.0766
CGCCGCTC	0.177

Block 4
Target: CEP164, C-terminal peptide (human)
Technique: DHFR complementation, deep sequencing
Medium: yeast
Setting: single substitutions, model-inferred values
Reference: wild type
Direction: higher = weaker binding
Parent: PDZK1, PDZ domain 2 (human); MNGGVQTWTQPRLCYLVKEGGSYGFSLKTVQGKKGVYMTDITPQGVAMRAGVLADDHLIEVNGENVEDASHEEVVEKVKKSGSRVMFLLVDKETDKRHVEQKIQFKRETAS; partner HNRVKVYRF
Variant	binding free energy change [kcal/mol]
K28P	0.988
V61C	0.484
K80W	0.833
G3L	0.0504
S83Y	0.135
V46A	0.249
L88Q	0.109
I59Q	0.838
T94H	-0.0683
C14L	0.287
T109W	-0.144
R107K	-0.219
V75S	2.2
Q101F	-0.0103
I103Y	-0.146
E19V	0.249
G51K	0.542
G82I	0.77
K33C	0.044
K102V	-0.018
Y15H	0.00974
N65Y	0.336
S70F	-0.00535
M48Q	-0.215
V75T	1.68

Block 5
Target: Centromere-binding protein 1, full length, His-tagged (CBF1, Saccharomyces cerevisiae, UniProt P17106, residues 1-351)
UniProt P17106, sequence (whole entry, looked up): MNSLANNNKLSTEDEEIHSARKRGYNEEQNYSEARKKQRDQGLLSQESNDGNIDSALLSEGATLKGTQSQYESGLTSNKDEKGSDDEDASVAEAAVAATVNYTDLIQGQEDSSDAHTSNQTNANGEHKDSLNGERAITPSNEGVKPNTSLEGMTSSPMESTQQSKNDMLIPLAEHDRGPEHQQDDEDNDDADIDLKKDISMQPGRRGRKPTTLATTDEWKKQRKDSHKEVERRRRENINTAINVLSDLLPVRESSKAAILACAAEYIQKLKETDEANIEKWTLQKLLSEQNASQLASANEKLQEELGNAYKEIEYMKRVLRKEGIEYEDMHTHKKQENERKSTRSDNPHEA
Technique: competition protein-binding microarray
Form: double-stranded DNA, one strand shown
Medium: in vitro
Concentration: 2 µM
Setting: whole 60-bp probe, lowest competitor level
With: Pho4 competitor, 0.05 µM
Direction: higher = stronger binding
Constant ends, left off below: … GTCTTGATTCGCTTGACGCTGCTG
Strand	fluorescence intensity [a.u.]
AGGCGAGAAGTTCCACGCGTGTGAATTCCCCGGATG	80.5
TGCGCAACAACTTGGGACGTGGGTGTATGTCTAGAA	68.4
CTTAGGAATGATTAAAGCATGACAATCAGCAGTAGG	126
TTCTAGGTTTAACTTCACGTGTTCCCCACCGAGGCG	1100
TGCGCAACAACTTTTCACGTGCTCTTATGTCTAGAA	1720
CCAGCAGTGCCTGCCCACGTGAGCTAGGCGACATCC	1310
GATAGTAACTCGAGTCACGTGCTTTCTAACCATCAA	10500
AAAGCGGTAATTTGACGAGTGGGTGCAGATATCTAT	62.7
CCGTCGCCACAGAAGCGCGTGGACGCAGGATCGCGC	51.5
GCCAAGCCCCTTCATCATGTGCCACTCCACATAACA	262
AACGACTTCGTCAAGTCCGTGACGGAGTCGGGGTAC	64.9
GCGACATCAACGAGTCACGTGACGGGCACTGCGTCG	26700
CTAACGAAGGTTTTTCACGTGTATTACAAGCCAAGT	731
CTAACGAAGGTTTGTCACAAGACTTACAAGCCAAGT	112
ATATCCCGCGCTTTTCCCGTGGTGAATACTGTGTGT	133
CGGGGTTAAGTTTGGAGGGTGGGTGGCTTGCAGCAG	84.6
CACTGTTCTTTAAAGCACGTGCTTTTGGTACCAACC	3410
CATACCCAACCTTGCTGGGTGGGTGAAGATATTTGT	71.1
TACTGGAGTATTCGTCACGTGCCAGTGTGGCCCTGT	7470
CATACCCAACCTTGACTAGTGGGTGAAGATATTTGT	66.9
CTTCTGTAAATTTGCTTGGTGGGTGGACGCGCCCCG	92.1
TTGTTGCAGTAATATTATGTGTCAAACCAGCCTGGC	78.7
CTAACGAAGGTTTGTCCCGTGGGTGACAAGCCAAGT	89.2
CTTTCCCGATCTTGCCAGGTGGGTGTAGCACATTTG	65.7

Block 6
Target: ABI1, truncated, D143A, DHFR fusion (Arabidopsis thaliana)
Technique: DHFR PCA, deep sequencing
Medium: yeast
Setting: methotrexate growth selection, single substitutions
With: (+)-ABA 17 µM
Reference: wild-type fitted maximum
Direction: higher = stronger binding
Parent: PYL1, truncated, DHFR fusion (Arabidopsis thaliana); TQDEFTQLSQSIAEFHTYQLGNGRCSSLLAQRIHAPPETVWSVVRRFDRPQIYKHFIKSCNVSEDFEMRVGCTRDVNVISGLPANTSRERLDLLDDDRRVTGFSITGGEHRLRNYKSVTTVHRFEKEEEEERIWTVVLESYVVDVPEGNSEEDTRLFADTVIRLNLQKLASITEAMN; partner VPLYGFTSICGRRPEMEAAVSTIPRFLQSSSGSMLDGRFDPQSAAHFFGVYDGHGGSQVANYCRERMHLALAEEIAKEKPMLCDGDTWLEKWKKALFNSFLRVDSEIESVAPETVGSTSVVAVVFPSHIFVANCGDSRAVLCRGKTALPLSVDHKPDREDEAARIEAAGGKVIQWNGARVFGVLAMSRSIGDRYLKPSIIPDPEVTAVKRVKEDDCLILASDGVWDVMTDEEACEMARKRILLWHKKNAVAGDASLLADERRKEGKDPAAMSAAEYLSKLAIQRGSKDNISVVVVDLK
Variant	relative binding score [%]
T119E	4.76
A158Q	7.43
V62S	17.3
I133W	73.4
L82D	-11.3
L138G	2.02
E14K	71
R98G	39.2
L93R	80
I79D	8.54
E38P	40.2
L93Q	79.8
S11G	64.1
L169S	-8.17

Excerpt of the above (block 4):
Variant	binding free energy change [kcal/mol]
K80W	0.833
G3L	0.0504
S83Y	0.135
V46A	0.249
L88Q	0.109
I59Q	0.838
T94H	-0.0683
C14L	0.287
T109W	-0.144
R107K	-0.219
V75S	2.2
Q101F	-0.0103
I103Y	-0.146
E19V	0.249
G51K	0.542
G82I	0.77
K33C	0.044
K102V	-0.018
